{"data": "Assay results from different studies", "Matrix protein 2 S31N": "Matrix protein 2 (Influenza A virus, UniProt P0DOF5, S31N)", "rep main protease": "Replicase polyprotein 1ab, main protease (rep, Severe acute respiratory syndrome coronavirus 2, UniProt P0DTD1)", "note": "Each line is one published result; not all experiments were run side by side. Values joined by “and” are separate records of one study, mostly repeats; a detail may differ. Numbers after ± are the reported error."}
{"Structure (SMILES)": "Brc1ncc(CNC23CC4CC(CC(C4)C2)C3)s1", "tested on": "Matrix protein 2 S31N", "assay": "proton channel activity, inhibitor", "test system": "Influenzavirus A, S31N mutant", "conditions": "100 µM", "endpoint": "inhibition", "value": "47%"}
{"Structure (SMILES)": "OC12CC3CC(C1)CC(NCc1cnc(N4CCCCC4)nc1)(C3)C2", "tested on": "Matrix protein 2 S31N", "assay": "channel activity, inhibitor", "conditions": "100 µM", "endpoint": "inhibition", "value": "67.2 ± 1.5%"}
{"Structure (SMILES)": "CC(C)(C)[C@H](NC(=O)NC1(CS(=O)(=O)C(C)(C)C)CCCCC1)C(=O)N1C[C@H]2[C@@H]([C@H]1C(=O)N[C@H](C#N)C[C@@H]1CCNC1=O)C2(C)C", "tested on": "Replicase polyprotein 1ab, main protease H41A (rep, Severe acute respiratory syndrome coronavirus 2, UniProt P0DTD1, H3304A)", "conditions": "pH 7.2", "endpoint": "ΔS", "value": "20.9 cal/mol/K"}
{"Structure (SMILES)": "Cc1cc(CNC23CC4CC(CC(C4)C2)C3)no1", "tested on": "Matrix protein 2 S31N", "assay": "proton channel activity, inhibitor", "test system": "Influenzavirus A, S31N mutant", "conditions": "100 µM", "endpoint": "inhibition", "value": "49%"}
{"Structure (SMILES)": "CC(C)C(=O)OC[C@H]1O[C@@](C#N)(n2ccc(N)nc2=O)[C@H](O)[C@@H]1O", "tested on": "SARS-CoV-2", "assay": "viral replication", "test system": "Calu-3, Gamma", "endpoint": "EC90", "value": "3.5 ± 0.4 µM"}
{"Structure (SMILES)": "c1nc(CNC23CC4CC(CC(C4)C2)C3)no1", "tested on": "Matrix protein 2 S31N", "assay": "proton channel activity, inhibitor", "test system": "Influenzavirus A, S31N mutant", "conditions": "100 µM", "endpoint": "inhibition", "value": "52%"}
{"Structure (SMILES)": "CC[C@H](C)[C@H](NC(=O)[C@H](CC(=O)O)NC(=O)[C@@H]1CSCC(=O)N[C@H](Cc2ccc(O)cc2)C(=O)N[C@@H](Cc2ccc(O)cc2)C(=O)N[C@@H](CCCCN)C(=O)N2CCC[C@H]2C(=O)N[C@@H]([C@@H](C)O)C(=O)N1)C(=O)N[C@H](C(=O)N[C@@H](CC(C)C)C(=O)N[C@@H](Cc1ccccc1)C(=O)N[C@@H](Cc1c[nH]c2ccccc12)C(=O)N[C@@H](CO)C(N)=O)[C@@H](C)CC", "tested on": "rep main protease", "assay": "enzyme activity, inhibitor", "endpoint": "IC50", "value": "> 50 µM"}
{"Structure (SMILES)": "COc1ccc2ncc(F)c(C[C@H](O)[C@H]3OC[C@H](NCc4ccc5c(n4)NC(=O)CO5)CO3)c2c1", "tested on": "Mycobacterium tuberculosis", "test system": "H37Rv katG deletion", "endpoint": "MIC", "value": "0.125 mg/L"}
{"Structure (SMILES)": "CC(C)C[C@@H]1NC(=O)[C@H](C(C)C)NC(=O)[C@H](C)NC(=O)[C@H](Cc2ccc(O)cc2)NC(=O)[C@H](CCC(N)=O)NC(=O)[C@H](CC(C)C)NC(=O)[C@@H](Cc2ccc(O)cc2)NC(=O)CSC[C@@H](C(N)=O)NC(=O)[C@H](CCC(=O)O)NC(=O)[C@H](CCCNC(=N)N)NC(=O)[C@H](CCCNC(=N)N)NC(=O)[C@H](CCCCN)NC(=O)[C@H](Cc2c[nH]cn2)NC(=O)[C@H](CCCNC(=N)N)NC1=O", "tested on": "rep main protease", "assay": "enzyme activity, inhibitor", "endpoint": "IC50", "value": "0.07 µM"}
{"Structure (SMILES)": "O=C(NC1CCN(c2ncnc3[nH]cnc23)CC1)c1cccc(NS(=O)(=O)c2ccc(C(F)(F)F)cc2)c1", "tested on": "Replicase polyprotein 1ab, nsp14 R310A (rep, Severe acute respiratory syndrome coronavirus 2, UniProt P0DTD1, R6235A)", "assay": "thermal shift", "test system": "SARS-CoV-2", "endpoint": "ΔTm", "value": "5.8 °C and 5.2 °C"}
{"Structure (SMILES)": "Cc1nc(CNC23CC4CC(CC(C4)C2)C3)no1", "tested on": "Matrix protein 2 S31N", "assay": "channel activity, inhibitor", "conditions": "100 µM, S31N mutant", "endpoint": "inhibition", "value": "60%"}
{"Structure (SMILES)": "C1C2C1C1C3C4C5C6CC6C4C14CNCC54C23 (stereo not drawn)", "tested on": "Matrix protein 2 (Influenza A virus, UniProt P0DOF5, V27A)", "assay": "ion channel, inhibitor", "test system": "A/Udorn/72", "conditions": "concentration not given", "endpoint": "activity", "value": "inactive"}
{"Structure (SMILES)": "O=c1cc(-c2ccc(O)cc2)oc2c([C@@H]3OC[C@H](O)[C@H](O)[C@H]3O)c(O)c([C@@H]3O[C@H](CO)[C@@H](O)[C@H](O)[C@H]3O)c(O)c12", "tested on": "Replicase polyprotein 1ab, main protease R188A (rep, Severe acute respiratory syndrome coronavirus 2, UniProt P0DTD1, R3451A)", "assay": "3CL protease activity, inhibitor", "conditions": "concentration not given, 3CLpro R188A mutant", "endpoint": "inhibition", "value": "40.3%"}
{"Structure (SMILES)": "Nc1ncc(CNC23CC4CC(CC(C4)C2)C3)s1", "tested on": "Matrix protein 2 S31N", "assay": "proton channel activity, inhibitor", "test system": "Influenzavirus A, S31N mutant", "conditions": "100 µM", "endpoint": "inhibition", "value": "25%"}
{"Structure (SMILES)": "c1nc(N2CCCCCC2)ncc1CNC12CC3CC(CC(C3)C1)C2", "tested on": "Matrix protein 2 (Influenza A virus, UniProt P0DOF5)", "assay": "channel activity, inhibitor", "conditions": "100 µM", "endpoint": "inhibition", "value": "0.7 ± 0.7%"}
{"Structure (SMILES)": "COc1ccc(CNC23CC4C5CC6CC4C(C2)C(C6)C5C3)c(O)c1", "tested on": "Matrix protein 2 S31N", "assay": "binding", "endpoint": "kon", "value": "< 43 M⁻¹ s⁻¹"}
{"Structure (SMILES)": "N[C@@H](CCC(=O)N[C@@H](CS[Se]Cc1ccc(C(=O)Nc2cc(C(F)(F)F)c(Br)c(C(F)(F)F)c2)cc1)C(=O)NCC(=O)O)C(=O)O", "tested on": "Low molecular weight protein-tyrosine phosphatase A (Mycobacterium tuberculosis, UniProt P9WIA1, C16A/C53A)", "endpoint": "modified protein mass", "value": "18.6 kDa"}
{"Structure (SMILES)": "c1nc(N2CCCCC2)ncc1CNC12CC3CC(CC(C3)C1)C2", "tested on": "Matrix protein 2 S31N", "assay": "channel activity, inhibitor", "conditions": "100 µM", "endpoint": "inhibition", "value": "74.4 ± 3.3%"}
{"Structure (SMILES)": "C=Cc1c(C)c2cc3nc(cc4[nH]c(cc5nc(cc1[nH]2)C(C)=C5CCC(=O)O)c(CCC(=O)OC)c4C)C1(C)C3=CC=C(C(=O)OC)C1C(=O)OC (stereo not drawn)", "tested on": "Spike glycoprotein, S2 subunit (Severe acute respiratory syndrome coronavirus 2, UniProt P0DTC2)", "conditions": "S2 subunit", "endpoint": "ΔTm", "value": "-1.05 °C"}
{"Structure (SMILES)": "COc1ccc2ncc(F)c(CC[C@H]3OC[C@H](NCc4ccc(Cl)c(Cl)c4)CO3)c2n1", "tested on": "Mycobacterium tuberculosis", "test system": "H37Rv katG deletion", "endpoint": "MIC", "value": "0.25 mg/L"}
{"Structure (SMILES)": "CC1OC(OC2C(OC(=O)C34CCC(C)(C)CC3C3=CCC5C6(C)CCC(OC7OC(CO)C(O)C(O)C7O)C(C)(C)C6CCC5(C)C3(C)CC4O)OCC(O)C2O)C(O)C(O)C1OC1OCC(O)C(OC2OCC(O)C(OC3OCC(O)C(O)C3O)C2O)C1O (stereo not drawn)", "tested on": "SARS-CoV-2", "assay": "viral infection", "test system": "Vero, beta variant B.1.351", "endpoint": "IC50", "value": "1.47 µM"}
